Measurements gathered from unrelated publications.
Each line is one published result; not all experiments were run side by side. ± marks the error that the study gave.
NPFFR1: Neuropeptide FF receptor 1 (NPFFR1, Homo sapiens, UniProt Q9GZQ6)
Methyl-accepting chemotaxis protein CtaA: Methyl-accepting chemotaxis protein CtaA (Pseudomonas fluorescens, UniProt Q3K7T6)
PLA2G6: 85/88 kDa calcium-independent phospholipase A2 (PLA2G6, Homo sapiens, UniProt O60733)

`COc1ccc(CN[C@H]2C[C@@H](C(=O)NCCc3ccc(C(C)=O)cc3)N(Cc3ccccc3Cl)C2)cc1` has a Kb of greater than 10000 nM (NPFFR1; calcium mobilization, antagonist; CHO; 15 min, together with: NPFF).
With `N[C@@H](CO)C(=O)O` the Kd was 4900 ± 1300 nM (Methyl-accepting chemotaxis protein CtaA, sensing domain (Pseudomonas fluorescens, UniProt Q3K7T6); binding, thermal shift, curve fitting).
With `CCOc1ccc2c(c1)C1(CCC(OCCN3CCOCC3)CC1)C(=O)N2S(=O)(=O)c1ccc(C(=O)NC(C)(C)C)cc1OC` (centres unmarked) the EC50 was 1.97 ± 0.25 nM (Vasopressin V2 receptor (AVPR2, Homo sapiens, UniProt P30518, L83Q); rescue of cAMP response, cAMP-Glo luminescence; HeLa, mutant receptor expressed; without doxycycline, together with: vasopressin EC100).
With `CC(C)C[C@H](N)C(=O)O` the Kd was 10000 ± 2000 nM (Methyl-accepting chemotaxis protein CtaA; binding, ITC).
The EC50 of `Cc1cccc(Oc2cc(Oc3cccc(C)n3)cc(Oc3cccc(C)n3)c2)n1` is reported as roughly 58 nM (NLR family member X1 (Nlrx1, Mus musculus, UniProt Q3TL44); thermal stabilisation, CETSA; mouse splenocytes; 3 h).
The EC50 of `CC(C)(C)Nc1nc2cc(Cl)c(Cl)cc2nc1S(C)(=O)=O` is reported as roughly 900 nM (Gasdermin-D (GSDMD, Homo sapiens, UniProt P57764); pore formation, activator, liposome leakage).
The XI(50) of `CCC[C@@H]1OC(=O)[C@@H]1CCCc1ccc(OC)cc1` (racemic) is reported as 0.038 mole fraction (PLA2G6; enzyme activity, inhibitor, mixed micelle; 50% inhibition).
`Nc1ncnc2c1ncn2[C@@H]1O[C@H](COP(=O)(O)OP(=O)(O)OC[C@H]2O[C@@H](O)C(O)[C@H]2O)C(O)[C@@H]1OP(=O)(O)O` (some centres unmarked) has an EC50 of 420 ± 40 nM (TRPM2 (Nematostella vectensis, UniProt A7T1N0); channel activation, agonist, inside-out patch clamp; Xenopus oocytes; -20 mV, together with: 125 µM Ca2+).
`COc1ccc(CN[C@H]2C[C@@H](C(=O)NCCc3ccc(OC)c(OC)c3)N(Cc3ccccc3Cl)C2)cc1` gave a Kb of 1030 ± 50 nM (NPFFR1; calcium mobilization, antagonist; CHO; 15 min, together with: NPFF).
With `CCOC(=O)Nc1ccc(SCCN2CCCCC2)nc1N` the EC50 was greater than 10000 nM (Voltage-gated potassium channel, KQT; KCNQ2(Kv7.2)/KCNQ3(Kv7.3) (KCNQ3/KCNQ2, Homo sapiens, UniProt O43525+O43526); thallium flux, opener, fluorescence thallium flux; HEK293 expressing KV7.2/3; 30 min).
For `CCC[C@H]1OC(=O)[C@@H]1CCCCc1ccccc1` (racemic), the XI(50) was 2.1e-06 mole fraction (PLA2G6; enzyme activity, inhibitor, mixed micelle; 50% inhibition).
For `O=S(=O)(Nc1cccn(O)c1=S)c1ccc(Br)s1`, the Ki was 5000 nM (Insulin-degrading enzyme (IDE, Homo sapiens, UniProt P14735); substrate degradation, fluorescence polarisation; mean of physiological substrates).
For `CNC(=O)c1ccc(CCNC(=O)[C@@H]2C[C@H](NCc3ccc(OC)cc3)CN2Cc2ccccc2Cl)cc1`, the Kb was greater than 10000 nM (Neuropeptide FF receptor 2 (Homo sapiens, UniProt Q9Y5X5); calcium signal, antagonist, fluorescence).
With `CC(C)[C@H](N)C(=O)O` the Kd was 4000 ± 1000 nM (Methyl-accepting chemotaxis protein CtaA; binding, ITC).
For `CC(C)C[C@H](NC(=O)[C@H](CCCNC(=N)N)NC(=O)[C@H](CC(C)C)NC(=O)[C@H](CO)NC(=O)[C@@H]1CCCN1C(=O)[C@@H](N)CO)C(=O)N[C@@H](CCCNC(=N)N)C(=O)N[C@@H](Cc1ccccc1)C(N)=O`, the EC50 was 5.89 ± 3.74 nM (Short neuropeptide F receptor (Drosophila melanogaster, UniProt Q9VW75); calcium mobilization, agonist; HEK-293T transfected, Gα16; 37 °C).
For `C[C@@H]1CN(c2ccc(-c3cc(C(=O)NCCOCCOCCOCCOCCNC(=O)Cn4cc(-c5[nH]cc(C(=O)N[C@@H](CC(N)=O)c6ccc(F)c(Cl)c6)c5-c5ccc(Cl)cc5F)cn4)ccc3F)cc2NC(=O)c2c[nH]c(=O)cc2C(F)(F)F)C[C@H](C)N1C`, the DC50 was 200 ± 28 nM (WDR5/DCAF1 (Homo sapiens, UniProt P61964+Q9Y4B6); degrader, measured: HiBiT-WDR5; MV4-11 expressing HiBiT-WDR5; 24 h).
`CC(C)(CC(=O)N1CCCC1)NCC(=O)N1C[C@@H](F)C[C@H]1C#N` has an EC50 of 249 nM (Dipeptidyl peptidase 4 (DPP4, Homo sapiens, UniProt P27487); enzyme activity, inhibitor; Chinese type 2 diabetes patients, plasma; Emax model, multiple doses).

Some of these lines once more:
For `C[C@@H]1CN(c2ccc(-c3cc(C(=O)NCCOCCOCCOCCOCCNC(=O)Cn4cc(-c5[nH]cc(C(=O)N[C@@H](CC(N)=O)c6ccc(F)c(Cl)c6)c5-c5ccc(Cl)cc5F)cn4)ccc3F)cc2NC(=O)c2c[nH]c(=O)cc2C(F)(F)F)C[C@H](C)N1C`, the DC50 was 200 ± 28 nM (WDR5/DCAF1 (Homo sapiens, UniProt P61964+Q9Y4B6); degrader, measured: HiBiT-WDR5; MV4-11 expressing HiBiT-WDR5; 24 h).
